Assay results from different studies.
A part holds a random share of what one study measured.

Study 1
Target: Sal-like protein 4, full length isoform A (SALL4, Homo sapiens, UniProt Q9UJQ4, residues 1-1053)
UniProt Q9UJQ4, sequence (whole entry, looked up): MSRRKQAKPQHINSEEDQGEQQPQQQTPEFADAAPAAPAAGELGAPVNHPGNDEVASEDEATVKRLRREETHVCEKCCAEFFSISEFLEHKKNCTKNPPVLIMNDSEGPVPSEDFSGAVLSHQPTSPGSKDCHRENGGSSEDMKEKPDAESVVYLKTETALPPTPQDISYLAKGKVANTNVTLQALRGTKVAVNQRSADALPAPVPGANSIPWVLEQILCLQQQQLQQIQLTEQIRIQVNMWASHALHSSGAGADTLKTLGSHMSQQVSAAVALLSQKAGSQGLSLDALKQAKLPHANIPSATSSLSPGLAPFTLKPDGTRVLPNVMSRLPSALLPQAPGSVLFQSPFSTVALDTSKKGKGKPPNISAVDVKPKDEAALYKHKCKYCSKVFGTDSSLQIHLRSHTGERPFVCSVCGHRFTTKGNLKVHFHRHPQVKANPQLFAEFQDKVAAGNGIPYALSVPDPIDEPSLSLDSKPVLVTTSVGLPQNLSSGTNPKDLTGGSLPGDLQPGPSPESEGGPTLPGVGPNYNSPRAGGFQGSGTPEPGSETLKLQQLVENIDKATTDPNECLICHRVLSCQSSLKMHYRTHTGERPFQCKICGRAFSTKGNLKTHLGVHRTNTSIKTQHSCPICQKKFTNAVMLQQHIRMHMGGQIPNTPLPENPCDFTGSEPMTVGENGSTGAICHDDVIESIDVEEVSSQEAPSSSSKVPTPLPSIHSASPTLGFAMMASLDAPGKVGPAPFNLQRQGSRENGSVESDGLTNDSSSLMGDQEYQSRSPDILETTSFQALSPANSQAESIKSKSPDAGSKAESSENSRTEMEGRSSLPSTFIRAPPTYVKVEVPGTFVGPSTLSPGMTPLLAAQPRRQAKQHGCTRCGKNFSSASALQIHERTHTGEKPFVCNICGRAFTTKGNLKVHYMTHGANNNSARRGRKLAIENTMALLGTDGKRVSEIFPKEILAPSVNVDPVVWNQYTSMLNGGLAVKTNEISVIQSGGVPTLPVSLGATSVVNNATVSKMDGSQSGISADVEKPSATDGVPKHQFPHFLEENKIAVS
Method: universal PBM
Molecule type: double-stranded DNA, one strand shown
Medium: in vitro
Tested at: 600 nM
Notes: 8-mer, flanks averaged, mean of replicates
Reading: higher = stronger binding
Oligonucleotide	E-score
AAAAAGTC	0.0884
AGATTACC	0.12
CGCGAACA	-0.0852
ACAATTAC	0.301
CAGTGGTC	-0.237
GAAGACAC	-0.0914
CATCAAGG	-0.0357
AGACATCC	-0.0912
ACACCACT	0.0729
AAACGTAC	0.0538
CGGAAGTC	-0.106
GCTCTCGA	-0.183
CGAATGGC	-0.0183
CGATGGTC	-0.156
CTTACCTC	-0.129
CATTAGGA	0.143
CTAAATGC	0.0312
AGAGTGCG	-0.161
AGAAACAT	0.286
CCTGCCCA	-0.238
AGCGATTA	0.0929
CAAGGATG	0.0397
ATTCCCCA	-0.0769
CCGTCGCA	-0.205
AACGTCCC	-0.157

Study 2
Target: RNA binding protein fox-1 homolog 2, RRM domain, GST-SBP tag (RBFOX2, Homo sapiens, UniProt O43251-10, residues 100-194)
Method: RNA Bind-n-Seq
Molecule type: RNA
Medium: in vitro
Tested at: 365 nM
Notes: natural RNA segment, single round, ends assumed
Relative to: no-protein control
Reading: higher = stronger binding
Constant ends, left off below: GGGAGUUCUACAGUCCGACGAUC … UGGAAUUCUCGGGUGCCAA
Oligonucleotide	RBNS enrichment (R)
AGACCAGGAGAGAAUUUGGGCCCUUACUGACCUGUCCUCCUUCAGGGACAUGAGCAUUCCCUAUAGAUUAGGGUUCUUCUUAUCCUCCUAUACAAAUUUCUUAAAUUGUU	0.415
UUUUGUGUUGAUCAUUAUUUCCAUUCUUAAUGUGAAAAAAAGUAAUUAUUUAUACUUAUUAUAAAAAGUAUUUGAAAUUUGCACAUUUAAUUGUCCCUAAUAGAAAGCCA	0.491
AGUUGUUUUUGUGUGGAAUCUUGUCUUUCCGUAUAAGUUGUAAGCUCCUUGAGAGCAGGAUCCAUGUCAUUCCUUUAUUUUUAUAAAUUAUUCCCCCUAUCAUUCCUUUA	0.678
AUAGGGAUGGAGUGAGGUGACAGUGGGAAGGGACACAACUACAUGGCCUUUCAUGACCCUGGCUUACUGUGUAAAUGCUGUGCCCUUGGGUACUGGAUAGGAACACUGAG	0.54
UUGCACCCGCUCUCUGUUGUACACUUUCAAGCAACACUUUUUCAGACUAAAGGCCAAACAAAAGCUAUCGUGCUCAUAGUGUCCUGCUUUACUCUCCUACCCUGGCCCCA	0.446
CAGAGUGAGGUUUAGCUUUGUCUUUCUGGGAUUCUCAGGUUCCACAGUAAUUACAAGCUGACUUUUUACUGAACAUAGGAAUGUUAAAAACAAAUGUGUAGGUGGCUGGA	0.713
CUGACUAACAAAUCGAAUGUAAAGUUGGGAAUGUUUGGUUCUGUGUAUGCAGACACAUGAGCUGUGGGGUAACAAUCAAAACGUAAUCUUUCAUAGAUAGCCAUUACAUU	0.416
CUCACAGUCGGCCACUGGAUUUCCCUCACUGGCUCUCAGGAGUGUGACCAGAGUAGACUUGGGGCAUGGCCAUUGGGGUCAUAUGUUUAUUUUUCAUUGUGUUUUGUGAC	0.652
CCAUGAGAUUUUUACAUGUGCAUAAGUAUUUAGCCAAUACACAUUUUGCUGACUUCUUUAACCAUUUAUAUUGUUUAAAUUAGUAAUAUCCAAUGCAGUGCACACUUUUU	0.409
AUUUUGAUAUUAACACCGGCAUAAAUCUAUUUUUGCUACCAGAUGAUAGCUAUUUUCAUUUGCUCUAUUUUCCUCUGCAUUGUACUAAUCUGUUACUCAGUGUUAGUCUU	0.73
CCUUGUCGUGAAUUCCCUGUUUAUCACUUCCAUGCAUGGUUUUAUGCUUCUCAUUUGUUUAUGUAUUCAUGAAUACUGCAUAGUCCUGAUUCAGAGACUUUUGCUUUGCU	0.948
GCUUUAUUUUUGUUUUAAUCUUUUGUUGCCAGUGAUGAUUUUCCUAUUCUGCAAAUAGUGUAUUUCCUGGAUUACACAUAGUAUGGUUUCCUGAAGUAUUCUGAUAAAUG	0.524

Study 3
Target: RING finger protein unkempt homolog, zinc fingers 1-6, GST-SBP tag (UNK, Homo sapiens, UniProt Q9C0B0, residues 30-357)
Method: RNA Bind-n-Seq
Molecule type: RNA
Medium: in vitro
Tested at: not given
Notes: RNA with constant flanks, human and mouse sites, ends assumed
Relative to: input RNA pool
Reading: higher = stronger binding
Constant ends, left off below: GGGAGUUCUACAGUCCGACGAUC … CAACAGAGGAUUGAGCAUCA
Residues (chain): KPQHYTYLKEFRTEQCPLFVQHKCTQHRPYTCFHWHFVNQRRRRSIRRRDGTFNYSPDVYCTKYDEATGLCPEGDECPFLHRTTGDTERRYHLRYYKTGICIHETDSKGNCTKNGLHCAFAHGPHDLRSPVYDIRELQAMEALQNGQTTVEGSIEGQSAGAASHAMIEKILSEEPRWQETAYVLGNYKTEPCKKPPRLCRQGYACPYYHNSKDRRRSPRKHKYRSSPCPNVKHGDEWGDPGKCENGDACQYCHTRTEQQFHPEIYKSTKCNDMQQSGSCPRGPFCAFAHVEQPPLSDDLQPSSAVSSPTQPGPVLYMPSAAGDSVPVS
Oligonucleotide	bound/input enrichment [ratio]
AAUGGUACUCUCUAUGAACAGCACGUUGAUGAGUGGAAUAUCGGCCGGCUGAAGACCAUCCUGGACCUGGUGGAGAAGGAGAGCGGGAUCACCAUUGAGGGGGUGAACACCCCCUACCUU	0.148
AAUGUACAGGAAAGGGAAGCACAGUUUGGAACAACAGCAGAGAUAUAUGCCUAUCGAGAAGAACAGGAUUUUGGAAUUGAGAUAGUGAAAGUGAAAGCAAUUGGAAGACAAAGGUUCAAA	0.368
GAGAAUCAGGGCUACACUGGUACCCUGGUGGGCCCGAUGUGAAACUCCUGUCAAACAACCAACUUUUAAAUGGUUUGCUAGGACUAUUUCUGUAUUGAAAGUUUCUAAUUAUGCUUUUUA	0.305
GUGUGUGAAGAUUUGGAAAAUAUUGAAGGACUGCACCACUUGUAUGAAAUUAUCAAAGGCAUCUUUCUCUUGAAUCGAACUGCUCUUUUUGAAGUUAUGUUCUCUGAAGAAUGUAUAAUG	0.414
GUCAAGGCCAAAACACUAAGAAAGCUGAUCCAGCAAACAUUCAGGCAGUUUGCCAACCUUAAUAGAGAAGAAAGCAUCCUGAAAUUCUUUGAGAUUCUUUCUCCUGUGUACAGAUUUGAC	0.512
AACGAUCUCCUCUGCAAUGUUGAUGUCAGUGACCUAUCUUUUCAUGACUCGCUGGCUACUUUUGUUGCCAUCCUCAUCGCUCGGCAGUGUUUGCUCCUGGAAGAUCUGAUUCGCUGUGCU	0.272
CUGUUGGGAUCUGGGCUUCCUCACUUCUGGAGAAGUGGCCAUCCCAUGCCCACCUGUGCCAUGGAGGAGUGGGCCCUGCCAGCUGCCACAGCUGCAUGACCUGCUUCCCCACCCCACGGU	0.0396
UUUCGCCUGGCGCUGGGCAGCUUCGUGGAAGAGUACAACAACAAGGUUCAGCUUGUUGGUUUAGAUGAGGAGAGUUCAGAGUUUAUUUGCCGAAACACCUUUGACCACCCGUACCCUACC	0.158
ACCUGGAACAAUGAGAUCUUGCCUAACUGGGAAACCAUGUGGUGCUCUAAGAAGGUUCGAGACUUGUGGUGGCAGGGAAUCCCUCCGAGUGUAAGAGGCAAAGUUUGGAGCUUGGCCAUU	0.102
UUUUUGUACUUUGUAAAAUAUGGAGCCCAUUGUACCUUCAGCUAUUUGAGACUAUACACAGUGCUUCUUUUGUAACUGGAUUACUUUAACUUUCGUGAAGGCAUUACAUUGCCUCACAUU	0.218
AACUUAGAUAAACUGACCAGCUACUCAUGUGUAUGUACUGAACCUCCAAACCCCAGCAAUGAAACUCUAGCACAAUGGAAGAAAGAUAAUAUAACAGCACACAAUAUUUCCUGGAGAAAU	0.961

Study 4
Target: Histone acetyltransferase KAT6A, both winged helices, GST fusion (KAT6A, Homo sapiens, UniProt Q92794, residues 1-181)
Method: protein binding microarray
Molecule type: double-stranded DNA, one strand shown
Medium: in vitro
Tested at: not given
Notes: 8-mer, flanks averaged, mean of 2 arrays, mostly near background
Relative to: not given
Reading: higher = stronger binding
Target sequence (chain): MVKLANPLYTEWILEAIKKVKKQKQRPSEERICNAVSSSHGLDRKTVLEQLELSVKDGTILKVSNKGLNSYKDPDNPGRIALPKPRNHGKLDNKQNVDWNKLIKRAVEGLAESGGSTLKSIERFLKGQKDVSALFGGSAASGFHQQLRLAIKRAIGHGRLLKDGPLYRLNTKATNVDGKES
Oligonucleotide	E-score
CGTATAGA	-0.00664
AGCATATA	-0.133
AGAGCTTG	-0.19
GGGCTGGA	-0.145
TCACGCCA	-0.00575
ACAGTGAT	-0.157
TGAGATAA	0.0381
ACAAGCCA	-0.17
CAAACTTG	-0.00834
ACATTCTA	-0.141
CCACGCGC	0.277
ACCGCGGT	0.381
CAACGCTC	-0.0473

Study 5
Target: Interferon regulatory factor 7, full length, phosphomimetic (IRF7, Homo sapiens, UniProt Q92985, residues 1-503, S471D/S472D/S475D/S476D/S477D/S483D/S484D/S487D)
UniProt Q92985, sequence (whole entry, unmodified, looked up): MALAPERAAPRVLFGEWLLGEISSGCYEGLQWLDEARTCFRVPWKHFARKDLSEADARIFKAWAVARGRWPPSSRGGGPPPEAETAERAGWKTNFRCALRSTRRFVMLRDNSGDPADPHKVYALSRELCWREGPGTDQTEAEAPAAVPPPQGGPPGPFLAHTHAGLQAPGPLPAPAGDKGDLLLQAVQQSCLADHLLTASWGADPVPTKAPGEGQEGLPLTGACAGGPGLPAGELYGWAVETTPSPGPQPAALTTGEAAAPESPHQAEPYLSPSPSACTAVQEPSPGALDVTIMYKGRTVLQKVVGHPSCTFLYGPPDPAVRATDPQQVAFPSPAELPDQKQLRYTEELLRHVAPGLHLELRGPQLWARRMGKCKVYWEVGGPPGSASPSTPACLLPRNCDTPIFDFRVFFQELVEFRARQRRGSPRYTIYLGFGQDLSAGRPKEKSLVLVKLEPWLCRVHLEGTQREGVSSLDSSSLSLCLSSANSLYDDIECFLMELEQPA
Method: protein-binding microarray
Molecule type: double-stranded DNA, one strand shown
Medium: in vitro
Tested at: 2200 nM top
Notes: 60-bp whole probe
With: salmon DNA 0.4 mg/ml
Relative to: random background probes
Reading: higher = stronger binding
Constant ends, left off below: GCCTAGCAC … GTGCTAGGTCTTGATTCGCTTGACGCTGCTG
Oligonucleotide	fitted relative affinity [z-score]
GACGGTTTCGGTAGCGGGAC	3.37
TTAGGTATCAGACTGGATTA	-0.17
TTAGGACTGGCACTGGGTTA	-0.853
GACGGTATCCTTCTCCTTAC	1.66
GACGGTTTCGGTATCGGTAC	7.61
ACAGATGAGGAACCAAGGCC	-0.946
TTAGATTCCTGTTTCGATTA	4.87
CCCTGCGTGGTCTCGAGCTG	-0.97
TTAGTTCTCCTTATCCTTTA	1.69
GTAGGTTTCCTTATCCTTTA	1.99
TCATCTTCAGCACTCGGACT	1.02
